Assay results of several laboratories.
A part holds a random share of what one study measured. Substitutions count along the parent as printed.

Set 1 — method: RNA Bind-n-Seq; form: RNA; medium: in vitro; concentration: 365 nM; baseline: no-protein control; reading: higher = stronger binding
Target: RNA binding protein fox-1 homolog 2, RRM domain, GST-SBP tag (RBFOX2, Homo sapiens, UniProt O43251-10, residues 100-194)
Setting: natural RNA segment, single round, ends assumed
All sequences stand within: GGGAGUUCUACAGUCCGACGAUC … UGGAAUUCUCGGGUGCCAA
Target sequence (chain): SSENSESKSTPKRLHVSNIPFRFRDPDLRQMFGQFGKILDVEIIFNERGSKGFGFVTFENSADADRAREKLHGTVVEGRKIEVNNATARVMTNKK
| Strand | RBNS enrichment (R) |
| --- | --- |
| GUAAACAAAUUAAGAGUUAUUCAUUCAAAUUUUUUGCAGUGUUAAUCUGUAAAUGAUGGCUUGAUGUACAGAAAAUGUAUUUUUGCUUAAAAGAUGCCUGGGUACCUUUU | 0.545 |
| AGGGCCUUCUUAAGAUACAAAUGGUGGAGGAUUGCUGCCAGAGAAGUCUGGUCAGAGCCACAGGGUCUGCCUCCAGCCAAACGGGAGCUUUUGGUGAGAAGGUGUUGGAC | 0.817 |
| AACUCUGAAGUAUCAAGAGUUUUAACUACUUGUCUCUCUUUUGCUAAGAAGGGAUUUUUGAAUAUGCUAUCUACCUGGAAUCUCUCUCUCAACAAAAGGUAUAUGCCUUC | 0.475 |
| ACUUCACAUUCAGAUUUAUGUUCCAUUUCUUUUGACUGAGAAAAGUUGAACGGUAUGCAUGGUGAAAGGAAGCUGUCUGCCUCUGACCUUUCCCCAGGCUAUGAAAAGGA | 0.705 |
| UUUCUUUCUGUUCAGGAACCAUCAGUCCCCUUGUAAUAAAGGUGGUAGAUUUCAUUGAGGUUUUAGAUUGAAACUUUGAAUAAAUCAAAAAUACUCAUUCUUAUUUACUG | 0.352 |
| ACCUUCGGUGGAAUGUAUUGUUUCAGCAUAUUCUAUGUAUAAAAAAGUUUAAAGAUGUCUUCAAAGAAGACUAGAGUCUUUAAGUCACUUAUAGCUAUAUUUUACUACAA | 0.411 |
| GUAGUUCAAGGAGAAACCUGUCCAAGUUGAUGCCAAAGAUUUACUGCCAACCUUUUCCCCCCAAGGGAAAAAAUAUACGCAAGUAUAAAGCAUCUACAUCAAUGUUUAUA | 0.208 |
| AGUGGCCUCAGUAAAUGACAGAAAAACUGACAGGCUCAGUUUUGGAAGACAGCAAACUGGUAAGGUUCAUUCCUGGCUCGGUGCCAGGAACAUUUGUGUUUUGGAGCUCA | 0.286 |
| GACAUCCGCCAGGCUUCCCCUCAGCAGCAGGAGCCCAGGUCACCCUGGUUAAACUGCAGUGAUACAUUUAGGUGGGUGGGGUCAAGGCAUAUGUGGCCUCCGGGAGACAC | 0.377 |
| CCAGCCUGGGUUUCAUCUCCCACAGUAAAGCUAAGUAAGCCCCACAGACCUUACUGCUACUGCUGCUGCCAUUAAUGCUGUGCUCACUAUCUUGUCCAGGAUUUUAAGGA | 0.302 |
| AGGCCUGUCAGCAAAGCACCUUCCUCUGCCCACAGCCAGUCAGAGAAAACGAUCCAAAGGAGGGCAGAGGCCGCACACCCUGGGCCGAGUCCUGCCCGACUUCCCAGUUA | 0.397 |
| CUGGGGUUACAGGUGUGAUCACCUUGCUGGCUUGUGAGGUGCUGGGGACAACCCAGGGCUUCGUGCAUGUCAGGCACACACUCCCAACUAAGCUACAUCCCCAGUCCCUC | 1.56 |

Set 2 — method: protein-binding microarray; form: double-stranded DNA, one strand shown; medium: in vitro; concentration: 940 nM top; setting: 60-bp whole probe; together with: salmon DNA 0.4 mg/ml; baseline: random background probes; reading: higher = stronger binding; all sequences stand within: GCCTAGCAC … GTCTTGATTCGCTTGACGCTGCTG
Target: Interferon regulatory factor 5, full length, phosphomimetic (IRF5, Homo sapiens, UniProt Q13568-2, residues 1-514, S451D/S453D/S456D/S462D)
| Strand | fitted relative affinity [z-score] |
| --- | --- |
| TTAGGTTTCCTTCTCCTCTAGTGCTAG | 1.85 |
| TTAGAACTGAGTTTCAATTAGTGCTAG | 1.89 |
| CCTGGTTTTACTTTCTATCTGTGCTAG | 2.29 |
| AACGGTCTCGGTTTCGGGACGTGCTAG | 5.86 |
| GACGGACTTGGGACTGGGGACGTGCTA | -0.256 |
| GACGGTTTCGACACTCGGGACGTGCTA | 6.93 |
| TTAGATATCAGTATCAATTAGTGCTAG | 1.33 |
| GTAGATTTCAGTATCGATTAGTGCTAG | 5.52 |
| TCAGCTATGTTGTCCAGGACTGTGCTA | -0.414 |
| GACGGACTGATTCTCCTGACGTGCTAG | -0.27 |
| AAGTTTATACCTTAGGTTTTGTGCTAG | -0.142 |
| CATTCTCTGTTTATGTCTGGGTGCTAG | 5.19 |
| CAGGCAGGAGAAGTGAATGAGTGCTAG | -0.263 |
| GACGGTTCAGGTTTCGGGACGTGCTAG | 3.03 |
| TTAGATCTGAGTATCGATTAGTGCTAG | 4.06 |
| TCTGTTGCCCGTATCTAGGTGTGCTAG | -0.0378 |
| TCAACTTTCTTTAACTCACTGTGCTAG | 1.33 |
| TCAATCATTGCTTTCTCACTGTGCTAG | 0.989 |

Set 3 — method: DHFR PCA, deep sequencing; medium: yeast; together with: (+)-ABA 0.39 µM; baseline: wild-type fitted maximum; reading: higher = stronger binding
Target: ABI1, truncated, D143A, DHFR fusion (Arabidopsis thaliana)
Setting: methotrexate growth selection, single substitutions
Starting sequence: PYL1, truncated, DHFR fusion (Arabidopsis thaliana); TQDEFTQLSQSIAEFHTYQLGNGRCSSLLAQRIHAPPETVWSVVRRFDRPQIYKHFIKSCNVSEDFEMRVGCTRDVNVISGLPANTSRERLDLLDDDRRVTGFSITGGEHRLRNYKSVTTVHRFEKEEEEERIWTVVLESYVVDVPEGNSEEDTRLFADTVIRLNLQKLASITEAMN; partner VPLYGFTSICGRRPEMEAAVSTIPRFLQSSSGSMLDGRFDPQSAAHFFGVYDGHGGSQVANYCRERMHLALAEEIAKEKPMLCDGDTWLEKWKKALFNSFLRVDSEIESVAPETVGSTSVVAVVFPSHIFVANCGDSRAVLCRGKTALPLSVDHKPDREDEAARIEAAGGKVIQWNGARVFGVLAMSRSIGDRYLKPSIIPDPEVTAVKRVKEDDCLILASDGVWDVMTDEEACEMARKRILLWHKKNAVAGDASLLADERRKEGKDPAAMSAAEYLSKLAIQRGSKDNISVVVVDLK
| Substitution | relative binding score [%] |
| --- | --- |
| E147F | 18.8 |
| H16K | -2.73 |
| R99E | -0.248 |
| Y18C | 0.845 |
| L29E | -5.41 |
| N61T | 67.5 |
| N61M | 46.2 |
| I52A | 46.9 |
| V78D | -3.4 |
| T86Y | 56.3 |
| S59F | 6.8 |
| A13V | 20.9 |
| D153Q | -8.7 |
| V136H | -11.9 |
| T39N | 10.2 |
| L8R | 0.0479 |
| V100S | -2.39 |
| E64A | 46 |
| R155L | 16 |
| W134I | 42.2 |
| T17C | 5.91 |
| V137E | -1.96 |
| H16G | -5.39 |

Set 4 — target: CCNA1, cyclin fold, Cln2 fusion (human); method: yeast growth competition, sequencing; medium: yeast; setting: weak parent motif; baseline: not given; reading: higher = stronger binding
Starting sequence: KIF20B docking peptide (human); KRAKRKLYTSEIS; partner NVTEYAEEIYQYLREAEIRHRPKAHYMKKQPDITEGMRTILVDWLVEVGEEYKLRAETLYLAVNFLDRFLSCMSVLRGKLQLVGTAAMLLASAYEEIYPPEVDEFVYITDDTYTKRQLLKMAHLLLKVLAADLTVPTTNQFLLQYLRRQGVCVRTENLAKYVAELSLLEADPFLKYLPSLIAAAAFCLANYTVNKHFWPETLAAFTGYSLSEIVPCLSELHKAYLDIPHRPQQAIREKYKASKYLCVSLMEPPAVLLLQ
| Substitution | normalised enrichment score |
| --- | --- |
| K1A | 0.432 |
| K6A | 0.271 |
| Y8A | -0.00183 |
| I12A | 0.575 |
| S10A | 0.0706 |
| K4A | 0.583 |

Set 5 — target: TEF, bZIP domain (human); method: DHFR protein complementation; medium: yeast; baseline: wild-type JUN-FOS pair; reading: higher = stronger binding
Setting: single substitutions, most at no-binding floor
Starting sequence: JUN, bZIP domain (human); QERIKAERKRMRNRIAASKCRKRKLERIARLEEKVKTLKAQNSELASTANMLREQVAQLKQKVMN; partner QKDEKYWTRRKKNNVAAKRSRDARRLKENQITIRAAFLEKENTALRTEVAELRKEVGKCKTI
| Substitution | binding fitness [natural log] |
| --- | --- |
| K39P | -1.52 |
| N42H | -1.57 |
| Q55G | -1.26 |
| K36P | -1.5 |
| A57Y | -1.32 |
| V56T | -1.54 |
| A40S | -1.39 |
| M51N | -1.48 |
| K36S | -1.45 |
| S43G | -1.37 |
| S47Y | -1.53 |
| V56K | -1.35 |
| A46D | -1.49 |
| S47L | -1.47 |
| L59S | -1.29 |

Set 6 — method: universal PBM; form: double-stranded DNA, one strand shown; medium: in vitro; concentration: 600 nM; reading: higher = stronger binding
Target: Sal-like protein 4, full length isoform A (SALL4, Homo sapiens, UniProt Q9UJQ4, residues 1-1053)
Chain of UniProt Q9UJQ4 (whole entry, looked up): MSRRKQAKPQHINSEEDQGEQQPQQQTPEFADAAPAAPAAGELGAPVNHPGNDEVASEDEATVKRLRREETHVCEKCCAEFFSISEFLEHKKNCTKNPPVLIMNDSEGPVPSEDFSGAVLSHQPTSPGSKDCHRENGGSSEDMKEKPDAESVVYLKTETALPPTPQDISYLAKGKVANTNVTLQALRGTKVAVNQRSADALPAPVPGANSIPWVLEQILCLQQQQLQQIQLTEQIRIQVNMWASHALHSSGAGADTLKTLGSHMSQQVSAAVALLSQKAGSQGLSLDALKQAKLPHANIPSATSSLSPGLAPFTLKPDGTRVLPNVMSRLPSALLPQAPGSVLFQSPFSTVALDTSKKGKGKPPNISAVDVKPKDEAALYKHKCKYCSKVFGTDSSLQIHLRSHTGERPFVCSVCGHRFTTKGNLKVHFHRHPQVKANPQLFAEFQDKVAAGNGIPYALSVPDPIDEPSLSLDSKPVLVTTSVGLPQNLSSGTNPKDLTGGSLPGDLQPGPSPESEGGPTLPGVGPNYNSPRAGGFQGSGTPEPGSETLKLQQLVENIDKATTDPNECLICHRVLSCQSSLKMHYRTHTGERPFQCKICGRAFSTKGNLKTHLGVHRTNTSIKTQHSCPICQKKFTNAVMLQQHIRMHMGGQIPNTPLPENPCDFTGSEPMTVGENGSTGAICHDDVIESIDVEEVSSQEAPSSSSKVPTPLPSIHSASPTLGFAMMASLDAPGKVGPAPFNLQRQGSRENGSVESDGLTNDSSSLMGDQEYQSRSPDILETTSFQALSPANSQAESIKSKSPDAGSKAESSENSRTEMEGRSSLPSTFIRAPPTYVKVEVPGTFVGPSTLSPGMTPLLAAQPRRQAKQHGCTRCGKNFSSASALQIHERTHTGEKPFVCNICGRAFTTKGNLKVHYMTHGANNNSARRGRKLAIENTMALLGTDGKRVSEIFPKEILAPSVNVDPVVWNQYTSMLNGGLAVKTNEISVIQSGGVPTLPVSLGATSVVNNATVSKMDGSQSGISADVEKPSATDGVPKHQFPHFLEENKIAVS
Setting: 8-mer, flanks averaged, mean of replicates
| Strand | E-score |
| --- | --- |
| TAACCCTA | 0.0194 |
| ATATTTCC | 0.338 |
| ATCCATTG | 0.0612 |
| CTTCCCAA | -0.0734 |
| ACTTTAGG | 0.0836 |
| ATCTTCAG | 0.101 |
| GCGTAAGC | -0.203 |
| CACCGTAA | 0.0143 |
| AATTACGA | 0.307 |
| TGACCCCA | -0.317 |
| GAGCTGAA | -0.0645 |
| CGAGCGTA | 0.0413 |
| ACGCTCCG | -0.268 |
| CTTTCTCA | 0.256 |
| ACAAGCGA | -0.00761 |
| CACAACTA | 0.119 |
| ATTGGTGC | -0.0934 |
| CGGGCAGC | -0.429 |
| ATTAAGAC | 0.233 |
| CCGCCCAA | -0.238 |
| CCCTAAAC | -0.0882 |

Excerpt of the above (set 5):
| Substitution | binding fitness [natural log] |
| --- | --- |
| K39P | -1.52 |
| N42H | -1.57 |
| Q55G | -1.26 |
| K36P | -1.5 |
| A57Y | -1.32 |
| V56T | -1.54 |
| A40S | -1.39 |
| M51N | -1.48 |
| K36S | -1.45 |
| S43G | -1.37 |
| S47Y | -1.53 |
| V56K | -1.35 |
| A46D | -1.49 |
| S47L | -1.47 |
